Results pooled from the literature.
A part holds a random share of what one study measured. Values joined by “and” are separate records of one study, mostly repeats; a detail may differ.
UniProt P42336, sequence (whole entry, unmodified, looked up): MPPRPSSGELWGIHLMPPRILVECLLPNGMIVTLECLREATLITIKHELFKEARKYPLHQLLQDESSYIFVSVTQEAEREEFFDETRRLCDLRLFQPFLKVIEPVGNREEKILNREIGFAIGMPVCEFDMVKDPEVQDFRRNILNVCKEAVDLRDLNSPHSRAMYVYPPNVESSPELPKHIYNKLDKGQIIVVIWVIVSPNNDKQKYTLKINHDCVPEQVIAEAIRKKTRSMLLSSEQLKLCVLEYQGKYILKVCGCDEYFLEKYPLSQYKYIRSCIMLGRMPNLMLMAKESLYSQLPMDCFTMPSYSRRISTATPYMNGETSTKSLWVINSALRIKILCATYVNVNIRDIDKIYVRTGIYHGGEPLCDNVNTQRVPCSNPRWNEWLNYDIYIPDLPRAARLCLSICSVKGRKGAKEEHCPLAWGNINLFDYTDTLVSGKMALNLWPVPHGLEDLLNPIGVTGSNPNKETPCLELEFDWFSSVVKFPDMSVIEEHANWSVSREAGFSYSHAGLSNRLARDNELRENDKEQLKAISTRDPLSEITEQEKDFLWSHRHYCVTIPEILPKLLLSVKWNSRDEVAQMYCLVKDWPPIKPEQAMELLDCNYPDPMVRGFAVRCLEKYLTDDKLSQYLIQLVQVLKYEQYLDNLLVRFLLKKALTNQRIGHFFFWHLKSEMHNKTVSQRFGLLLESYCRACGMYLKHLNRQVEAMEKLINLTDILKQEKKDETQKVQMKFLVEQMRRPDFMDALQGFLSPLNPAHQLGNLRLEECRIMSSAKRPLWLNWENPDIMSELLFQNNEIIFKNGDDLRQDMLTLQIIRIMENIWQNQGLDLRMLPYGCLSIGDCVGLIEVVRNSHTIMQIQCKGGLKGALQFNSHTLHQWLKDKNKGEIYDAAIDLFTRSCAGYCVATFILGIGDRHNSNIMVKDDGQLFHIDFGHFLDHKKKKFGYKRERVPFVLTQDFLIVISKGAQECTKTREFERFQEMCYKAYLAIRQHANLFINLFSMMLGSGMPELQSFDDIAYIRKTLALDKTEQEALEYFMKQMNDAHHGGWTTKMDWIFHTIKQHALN
UniProt P42679, sequence (whole entry, looked up): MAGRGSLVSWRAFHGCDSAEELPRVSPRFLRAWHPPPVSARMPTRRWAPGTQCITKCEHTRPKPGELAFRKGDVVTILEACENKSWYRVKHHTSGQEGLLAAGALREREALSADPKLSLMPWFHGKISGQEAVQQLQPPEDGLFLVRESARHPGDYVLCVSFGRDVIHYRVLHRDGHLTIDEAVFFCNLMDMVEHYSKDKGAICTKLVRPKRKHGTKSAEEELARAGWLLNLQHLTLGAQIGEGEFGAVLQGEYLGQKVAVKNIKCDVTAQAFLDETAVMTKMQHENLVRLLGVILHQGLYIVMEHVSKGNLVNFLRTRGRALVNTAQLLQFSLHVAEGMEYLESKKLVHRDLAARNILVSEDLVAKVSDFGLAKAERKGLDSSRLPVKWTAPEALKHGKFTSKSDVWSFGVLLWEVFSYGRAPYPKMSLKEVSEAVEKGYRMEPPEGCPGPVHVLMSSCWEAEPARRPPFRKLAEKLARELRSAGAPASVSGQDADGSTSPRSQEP
UniProt P27448, sequence (whole entry, looked up): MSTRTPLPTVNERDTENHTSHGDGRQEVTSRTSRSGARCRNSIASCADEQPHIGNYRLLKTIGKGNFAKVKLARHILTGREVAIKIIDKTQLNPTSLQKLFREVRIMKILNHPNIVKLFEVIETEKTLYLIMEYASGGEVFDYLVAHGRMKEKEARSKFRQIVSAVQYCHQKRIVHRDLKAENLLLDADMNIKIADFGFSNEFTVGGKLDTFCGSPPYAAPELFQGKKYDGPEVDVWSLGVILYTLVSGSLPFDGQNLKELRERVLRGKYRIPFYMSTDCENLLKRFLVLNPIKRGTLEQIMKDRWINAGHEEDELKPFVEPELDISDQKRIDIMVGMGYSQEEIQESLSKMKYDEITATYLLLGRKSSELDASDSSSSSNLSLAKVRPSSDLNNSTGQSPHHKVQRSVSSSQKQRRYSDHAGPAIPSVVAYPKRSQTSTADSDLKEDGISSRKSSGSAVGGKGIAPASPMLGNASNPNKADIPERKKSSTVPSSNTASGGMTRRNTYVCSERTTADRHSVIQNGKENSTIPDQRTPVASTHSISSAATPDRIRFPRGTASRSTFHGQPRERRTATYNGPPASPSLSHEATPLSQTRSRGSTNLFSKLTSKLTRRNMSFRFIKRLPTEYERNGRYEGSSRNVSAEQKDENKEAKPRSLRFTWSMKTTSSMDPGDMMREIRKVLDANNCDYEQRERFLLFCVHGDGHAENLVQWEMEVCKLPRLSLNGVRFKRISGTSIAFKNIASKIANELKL
UniProt P50750, sequence (whole entry, looked up): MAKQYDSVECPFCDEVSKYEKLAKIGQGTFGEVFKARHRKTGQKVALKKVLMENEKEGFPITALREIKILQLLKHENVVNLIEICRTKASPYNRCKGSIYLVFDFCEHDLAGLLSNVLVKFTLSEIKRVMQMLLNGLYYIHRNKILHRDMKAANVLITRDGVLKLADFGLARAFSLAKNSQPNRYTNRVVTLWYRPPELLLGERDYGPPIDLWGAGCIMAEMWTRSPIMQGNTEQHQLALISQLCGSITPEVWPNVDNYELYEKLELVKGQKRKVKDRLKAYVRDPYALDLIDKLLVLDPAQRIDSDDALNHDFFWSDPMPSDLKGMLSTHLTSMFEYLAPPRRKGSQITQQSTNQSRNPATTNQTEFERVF
UniProt P36507, sequence (whole entry, looked up): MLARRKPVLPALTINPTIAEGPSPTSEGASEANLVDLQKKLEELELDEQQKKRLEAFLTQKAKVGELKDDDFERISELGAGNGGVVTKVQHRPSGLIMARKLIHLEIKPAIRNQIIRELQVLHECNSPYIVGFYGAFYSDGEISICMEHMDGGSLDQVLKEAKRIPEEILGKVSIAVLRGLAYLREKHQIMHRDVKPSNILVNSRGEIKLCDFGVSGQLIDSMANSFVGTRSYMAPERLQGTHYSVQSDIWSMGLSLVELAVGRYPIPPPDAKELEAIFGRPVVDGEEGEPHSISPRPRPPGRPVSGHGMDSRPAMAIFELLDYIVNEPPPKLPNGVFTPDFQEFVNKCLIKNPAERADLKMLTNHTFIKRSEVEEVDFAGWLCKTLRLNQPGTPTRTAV

Set 1 — read-out: RNA clamping; technique: fluorescence polarization; tested at: concentration not given; together with: FAM-labelled poly r(AG)8 RNA
Target: Eukaryotic initiation factor 4A-III (Homo sapiens, UniProt P38919)
UniProt P38919, sequence (whole entry, looked up): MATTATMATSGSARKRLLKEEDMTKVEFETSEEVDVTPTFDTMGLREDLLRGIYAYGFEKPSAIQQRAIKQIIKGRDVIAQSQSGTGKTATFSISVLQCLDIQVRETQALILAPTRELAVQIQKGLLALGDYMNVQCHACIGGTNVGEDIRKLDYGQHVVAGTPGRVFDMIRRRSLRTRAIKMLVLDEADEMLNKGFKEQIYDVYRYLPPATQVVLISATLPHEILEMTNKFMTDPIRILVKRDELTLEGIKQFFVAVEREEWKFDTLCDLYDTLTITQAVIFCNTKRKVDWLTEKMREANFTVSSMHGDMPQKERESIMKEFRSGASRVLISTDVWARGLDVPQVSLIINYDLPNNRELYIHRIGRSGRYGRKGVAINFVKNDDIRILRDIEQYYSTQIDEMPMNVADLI
Structure (SMILES)	fluorescence polarization change
COc1cc(OC)c2c(c1)O[C@@]1(c3ccc(Br)cc3)[C@H](c3ccccc3)C3=C(O[C@@H]4CCCN4C3=O)[C@@]21O	51.6 mP
COC(=O)[C@H]1C(=O)[C@@]2(NCCN(C)C)c3c(OC)cc(OC)cc3O[C@@]2(c2ccc(OC)cc2)[C@@H]1c1ccccc1	4.5 mP
O[C@@H]1C2(O)c3ccccc3O[C@]1(c1ccccc1)[C@@H](/C=C/c1ccccc1)[C@@H]2c1ccccc1	8.2 mP
COc1ccc([C@@]23Oc4cc(OC)cc(OC)c4[C@]2(O)C=C(C(=O)c2ccco2)[C@H]3c2ccccc2)cc1	27.8 mP
C#CCNC(=O)/C=C/Cn1c(-c2ccccc2)nc2c(c1=O)[C@@H](c1ccccc1)[C@]1(c3ccc(OC)cc3)Oc3cc(OC)cc(OC)c3[C@]21O	4.6 mP
COc1ccc([C@@]23Oc4cc(OC)cc(OC)c4[C@]2(O)c2nc(-c4cccc(OCc5ccccc5)c4)[nH]c(=O)c2[C@H]3c2ccccc2)cc1	-1.6 mP
COc1ccc([C@@]23Oc4cc(OC)cc(OC)c4[C@]2(O)[C@H](O)[C@H](C(=O)c2cc(C)c(C)o2)[C@H]3c2ccccc2)cc1	11.5 mP
COC(=O)[C@H]1C(=O)[C@@]2(NC(C)C)c3c(OC)cc(OC)cc3O[C@@]2(c2ccc(OC)cc2)[C@@H]1c1ccccc1	-0.2 mP
COc1cc(O)cc2c1[C@]1(O)[C@H](O)[C@H](C(=O)N(C)OC)[C@@H](c3ccccc3)[C@]1(c1ccc(Br)cc1)O2	51.1 mP and 28 mP
COC(=O)[C@@H]1[C@@H](c2ccccc2)[C@]2(c3ccc(OC)cc3)Oc3cc(OC)cc(OC)c3[C@@]23N=C2CCCCN2[C@@]13O	25.4 mP
COc1ccc([C@@]23Oc4cc(OC)cc(OC)c4[C@]2(O)[C@H](O)[C@H](CN(C)C)[C@H]3c2ccccc2)cc1	40.7 mP
C#CCCC(=O)O[C@@H]1[C@H](C(=O)c2ccco2)[C@@H](c2ccccc2)[C@]2(c3ccc(OC)cc3)Oc3cc(OC)cc(OC)c3[C@]12O	6.7 mP
COc1ccc([C@@]23Oc4cc(OC)cc(OC)c4[C@]2(O)[C@H](O)[C@H](C(=O)c2ccco2)[C@H]3c2ccc(O)cc2)cc1	7 mP
COc1ccc([C@@]23Oc4cc(OC)cc(OC)c4[C@]2(O)[C@H](O)[C@H](C(=O)c2ccccc2OC)[C@H]3c2ccccc2)cc1	5.8 mP
COc1ccc([C@]23Oc4cc(OC)cc(OC)c4[C@](O)([C@H]2O)[C@@H](C(=O)N(C)OC)[C@@H]3c2ccccc2)cc1	-1.3 mP
COc1ccc([C@@]23Oc4cc(OC)cc(OC)c4[C@]2(NCc2ccccc2)C(=O)C[C@H]3c2ccccc2)cc1	9.6 mP

Set 2 — read-out: enzyme activity; mode: inhibitor; tested at: 0.5 µM; reference: control
Target: Serine/threonine-protein kinase D2 (PRKD2, Homo sapiens, UniProt Q9BZL6)
UniProt Q9BZL6, sequence (whole entry, looked up): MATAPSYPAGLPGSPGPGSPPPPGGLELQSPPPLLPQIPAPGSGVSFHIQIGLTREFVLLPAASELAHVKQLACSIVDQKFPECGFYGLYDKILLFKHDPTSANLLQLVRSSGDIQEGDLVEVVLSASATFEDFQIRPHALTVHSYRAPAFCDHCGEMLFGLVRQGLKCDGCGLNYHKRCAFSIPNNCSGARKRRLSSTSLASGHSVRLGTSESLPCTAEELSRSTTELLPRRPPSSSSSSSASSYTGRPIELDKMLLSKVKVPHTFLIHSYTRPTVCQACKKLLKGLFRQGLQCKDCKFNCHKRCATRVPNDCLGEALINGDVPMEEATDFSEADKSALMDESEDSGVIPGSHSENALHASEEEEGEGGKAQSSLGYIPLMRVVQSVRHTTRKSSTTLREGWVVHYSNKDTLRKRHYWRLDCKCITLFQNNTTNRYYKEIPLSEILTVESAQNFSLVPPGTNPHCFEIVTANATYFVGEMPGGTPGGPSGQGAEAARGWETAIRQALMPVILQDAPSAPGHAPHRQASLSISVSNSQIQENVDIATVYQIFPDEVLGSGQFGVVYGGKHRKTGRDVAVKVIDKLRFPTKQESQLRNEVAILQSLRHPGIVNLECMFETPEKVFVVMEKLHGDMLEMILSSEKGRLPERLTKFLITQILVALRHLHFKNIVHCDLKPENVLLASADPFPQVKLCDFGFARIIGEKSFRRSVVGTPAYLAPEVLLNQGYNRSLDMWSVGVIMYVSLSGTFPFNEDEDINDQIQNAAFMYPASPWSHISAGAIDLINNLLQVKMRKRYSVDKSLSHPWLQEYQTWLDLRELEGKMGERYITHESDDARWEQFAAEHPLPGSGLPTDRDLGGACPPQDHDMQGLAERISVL
Structure (SMILES)	remaining activity [%]
O=c1cc(N2CCOCC2)oc2c1ccc1ccccc12	101
COc1cc2ncc(-c3ccccc3)nc2cc1OC	93.8
CCC(=O)Nc1ccc2ncnc(Nc3cccc(Br)c3)c2c1	85.1
CC(C)c1nn(-c2c(Cl)cccc2Cl)c2nc(Cc3ccc(OCCO)cc3)[nH]c(=O)c12	88.4
COc1cc2ncnc(N3CCN(C(=O)Nc4ccc(Oc5ccccc5)cc4)CC3)c2cc1OC	91.9
CN(C)CCCn1cc(C2=C(c3c[nH]c4ccccc34)C(=O)NC2=O)c2ccccc21	78.8
CC(C)[C@H](CO)Nc1nc(Nc2cccc(Cl)c2)c2ncn(C(C)C)c2n1	99.7
Cc1nc(Nc2ncc(C(=O)Nc3c(C)cccc3Cl)s2)cc(N2CCN(CCO)CC2)n1	93
CS(=O)(=O)CCNCc1ccc(-c2ccc3ncnc(Nc4ccc(OCc5cccc(F)c5)c(Cl)c4)c3c2)o1	86.4
CCOc1cc2ncnc(Nc3cccc(Br)c3)c2cc1OCC	86.9
Cc1ccc(NC(=O)c2ccc(CN3CCN(C)CC3)cc2)cc1Nc1nccc(-c2cccnc2)n1	95.1

Set 3 — technique: competition with immobilised ligand; tested at: 0.1 µM
SMILES: Cn1nc(C(=O)NCc2ccc(C(=O)O)cc2)cc1-c1ccc2[nH]ccc2c1
target	assay	remaining binding [%]
PAK1 (Homo sapiens, UniProt Q13153)	cell-free assay	86
LTK (Homo sapiens, UniProt P29376)	cell-free assay	81
TNK1 (Homo sapiens, UniProt Q13470)	cell-free assay	100
MATK (Homo sapiens, UniProt P42679)	cell-free assay	86
MARK3 (Homo sapiens, UniProt P27448)	cell-free assay	81
PIK3CA (Homo sapiens, UniProt P42336, M1043I)	cell-free assay	85
BMPR1A (Homo sapiens, UniProt P36894)	binding	94
Tyrosine-protein kinase ABL1, phosphorylated (ABL1, Homo sapiens, UniProt P00519, F317L)	cell-free assay	62
EPHB2 (Homo sapiens, UniProt P29323)	cell-free assay	100
BMPR2 (Homo sapiens, UniProt Q13873)	cell-free assay	83
RET (Homo sapiens, UniProt P07949)	cell-free assay	83
MAP2K2 (Homo sapiens, UniProt P36507)	cell-free assay	85
NTRK1 (Homo sapiens, UniProt P04629)	cell-free assay	74
BTK (Homo sapiens, UniProt Q06187)	cell-free assay	77
PIK3CA (Homo sapiens, UniProt P42336)	cell-free assay	41
DSTYK (Homo sapiens, UniProt Q6XUX3)	cell-free assay	96
MAP3K9 (Homo sapiens, UniProt P80192)	cell-free assay	100
Myosin-IIIa (MYO3A, Homo sapiens, UniProt Q8NEV4)	binding	95
EPHB4 (Homo sapiens, UniProt P54760)	cell-free assay	100
CDK9 (Homo sapiens, UniProt P50750)	cell-free assay	82
IRAK4 (Homo sapiens, UniProt Q9NWZ3)	cell-free assay	71
ROS1 (Homo sapiens, UniProt P08922)	cell-free assay	74

Set 4 — read-out: enzyme activity; mode: inhibitor; tested at: 10 µM
Target: Calcium/calmodulin-dependent protein kinase type II subunit alpha (CAMK2A, Homo sapiens, UniProt Q9UQM7)
UniProt Q9UQM7, sequence (whole entry, looked up): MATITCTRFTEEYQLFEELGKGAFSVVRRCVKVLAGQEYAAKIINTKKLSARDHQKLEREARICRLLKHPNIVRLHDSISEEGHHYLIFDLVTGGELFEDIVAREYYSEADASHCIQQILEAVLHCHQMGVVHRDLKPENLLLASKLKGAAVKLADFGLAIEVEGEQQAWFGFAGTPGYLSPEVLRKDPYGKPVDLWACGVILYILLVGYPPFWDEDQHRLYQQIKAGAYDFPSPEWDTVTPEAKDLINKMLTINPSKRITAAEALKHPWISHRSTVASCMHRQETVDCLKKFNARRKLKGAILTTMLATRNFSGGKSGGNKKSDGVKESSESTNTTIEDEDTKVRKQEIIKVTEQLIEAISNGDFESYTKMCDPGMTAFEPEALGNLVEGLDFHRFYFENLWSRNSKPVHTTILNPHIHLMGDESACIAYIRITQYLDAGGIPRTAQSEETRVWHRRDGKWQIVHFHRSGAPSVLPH
SMILES	inhibition
COCC(=O)O	32%
O=CNCC(=O)O	-25%
CSCCC(N)C(=O)O (racemic)	-14%
O=c1[nH]cnc2c1ncn2[C@H]1CC[C@@H](CO)O1	-6%
Cc1ccnc(NS(=O)(=O)c2ccc(N)cc2)n1	-5%
CCn1cc(C(=O)O)c(=O)c2cc(F)c(N3CCN(C)CC3)cc21	1%
COc1cc(CCC(=O)CC(=O)CCc2ccc(O)c(OC)c2)ccc1O	11%
C=C(NC(=O)C(=C)NC(=O)c1csc(C2=N[C@@H]3c4csc(n4)[C@H]4NC(=O)c5csc(n5)[C@H]([C@](C)(O)[C@@H](C)O)NC(=O)[C@H]5CSC(=N5)/C(=C/C)NC(=O)[C@H]([C@@H](C)O)NC(=O)c5csc(n5)[C@]3(CC2)NC(=O)[C@H](C)NC(=O)C(=C)NC(=O)[C@H](C)NC(=O)[C@H]([C@@H](C)CC)N[C@@H]2C=Cc3c([C@H](C)O)cc(nc3[C@H]2O)C(=O)O[C@@H]4C)n1)C(N)=O	-8%
O=C(O)[C@H]1O[C@@H](O[C@H]2[C@H](Oc3cc(O)c4c(=O)cc(-c5ccc(O)c(O)c5)oc4c3)O[C@H](C(=O)O)[C@@H](O)[C@@H]2O)[C@H](O)[C@@H](O)[C@@H]1O	-1%
O=C(O)/C=C(/CC(=O)O)C(=O)O	42%
O=C(CC(O)(CC(=O)OCc1ccc(O[C@@H]2O[C@H](CO)[C@@H](O)[C@H](O)[C@H]2O)cc1)C(=O)O)OCc1ccc(O[C@@H]2O[C@H](CO)[C@@H](O)[C@H](O)[C@H]2O)cc1	-12%
CCCc1nn(C)c2c(=O)[nH]c(-c3cc(S(=O)(=O)N4CCN(CCO)CC4)ccc3OCC)nc12	-9%
CC(C)c1ccc2c(c1)CC[C@H]1[C@](C)(CN)CCC[C@]21C	-42%
Cc1cn[nH]c1	-2%
Nc1nc2c(ncn2[C@@H]2O[C@H](COP(=O)(O)O)[C@@H](O)[C@H]2O)c(=O)[nH]1	-9%

For quick reference, copied from above (set 3):
target	assay	remaining binding [%]
CDK9 (Homo sapiens, UniProt P50750)	cell-free assay	82
TNK1 (Homo sapiens, UniProt Q13470)	cell-free assay	100
ROS1 (Homo sapiens, UniProt P08922)	cell-free assay	74
EPHB4 (Homo sapiens, UniProt P54760)	cell-free assay	100
PIK3CA (Homo sapiens, UniProt P42336)	cell-free assay	41
PAK1 (Homo sapiens, UniProt Q13153)	cell-free assay	86
DSTYK (Homo sapiens, UniProt Q6XUX3)	cell-free assay	96
